# Measured values pooled from the literature.
# Compare with care: the assays were run in different laboratories. Numbers after ± are the reported error.
Compound,test,test system,setting,scale,endpoint,value
CC[C@H](C)[C@@H]1NC(=O)[C@@H]2CSSC[C@H](NC(=O)[C@H](Cc3ccccc3)NC(=O)[C@@H]3CSSC[C@H](NC1=O)C(=O)N[C@@H](CC(C)C)C(=O)N[C@@H](C)C(=O)NCCCC[C@@H](NC(=O)[C@@H](Cc1ccccc1)NC(=O)[C@@H](CC(C)C)NC(=O)[C@@H]1CCCN1C(=O)[C@@H](CC(C)C)NC(=O)[C@@H](Cc1ccccc1)NC(=O)[C@@H](CCC(=O)O)NC(=O)[C@@H](C)NC(=O)[C@@H](Cc1ccccc1)NC(=O)[C@H](N)C(C)C)C(=O)N3)C(=O)N[C@@H]([C@@H](C)O)C(=O)N[C@@H](CCCNC(=N)N)C(=O)N[C@@H](CCSC)C(=O)N[C@@H](CO)C(=O)N1CCC[C@H]1C(=O)N1CCC[C@H]1C(=O)N[C@@H](CCC(N)=O)C(=O)N2,,pronase digestion,"48 h, pH 8.0, 25 °C, together with: 1 M guanidine HCl",,remaining intact peptide,85%
CC[C@H](C)[C@@H]1NC(=O)[C@H](CCCCN)NC(=O)[C@H](CCCCN)NC(=O)[C@H](Cc2ccc(O)cc2)NC(=O)[C@H](CC(C)C)NC(=O)[C@@H]2CCCN2C(=O)[C@H](C)NC(=O)CNC(=O)CNC(=O)[C@H](CO)NC(=O)CNC(=O)CNC(=O)[C@H](CO)NC(=O)[C@H](CCC(=O)O)NC(=O)[C@H](CC(C)C)NC(=O)[C@H](CC(C)C)NC(=O)[C@H](CCCNC(=N)N)NC(=O)[C@H](CCCCN)NC(=O)[C@H]([C@@H](C)CC)NC(=O)[C@H]([C@@H](C)CC)NC(=O)[C@H](CCCCN)NC(=O)[C@H](CCCCN)NC(=O)[C@H](Cc2ccc(O)cc2)NC(=O)[C@H](CC(C)C)NC(=O)[C@@H]2CCCN2C(=O)CNC(=O)CNC(=O)[C@@H](NC(=O)CN)CSSC[C@@H](C(N)=O)NC(=O)[C@H](CC(C)C)NC(=O)[C@H](CCCNC(=N)N)NC(=O)[C@H](CCCCN)NC(=O)[C@H]([C@@H](C)CC)NC1=O,,25% human serum,"50 µM, 24 h",baseline: 0 h control,remaining intact peptide,11.5 ± 0.1%
CC[C@H](C)[C@@H]1NC(=O)[C@@H](NC(=O)[C@H](CO)NC(=O)CNC(=O)CN)CSSC[C@@H](C(=O)NCC(=O)NCC(=O)N[C@@H](CO)C(=O)O)NC(=O)[C@H](CCSC)NC(=O)[C@H](CC(C)C)NC(=O)[C@H](CCCNC(=N)N)NC(=O)CNC(=O)CNC(=O)[C@H](CC(=O)O)NC1=O,LC-MS,chymotrypsin in buffer,"2 h, 37 °C, together with: chymotrypsin 100 µg/mL",,remaining intact peptide,< 20%
CC(C)[C@@H]1NC(=O)CNC(=O)[C@H](CC(N)=O)NC(=O)[C@H](CCCNC(=N)N)NC(=O)[C@H](Cc2ccc(O)cc2)NC(=O)[C@H](C(C)C)NC(=O)[C@@H](NC(=O)[C@@H](NC(=O)[C@H](CC(N)=O)NC(=O)[C@H](Cc2c[nH]c3ccccc23)NC(=O)[C@H](C)NC(=O)[C@H](Cc2ccccc2)NC(=O)CNC(=O)[C@H](CCCCN)NC(=O)[C@H](Cc2ccccc2)NC(=O)[C@H](Cc2ccccc2)NC(=O)[C@H](CCCCN)NC(=O)OCC2c3ccccc3-c3ccccc32)C(C)C)CSSC[C@@H](C(=O)N[C@@H](Cc2c[nH]cn2)C(=O)N[C@@H](CCCNC(=N)N)C(=O)N[C@@H](CCCNC(=N)N)C(=O)N[C@@H](C)C(=O)N[C@@H](CC(N)=O)C(N)=O)NC(=O)[C@H](C(C)C)NC(=O)[C@H](CCCNC(=N)N)NC1=O,,trypsin 1 % w/v,"2560 µM, 6 h",,remaining peptide,39.8%
CC[C@H](C)[C@@H]1NC(=O)[C@H](CCCCN)NC(=O)[C@H](CCCNC(=N)N)NC(=O)[C@H](Cc2ccc(O)cc2)NC(=O)[C@H](CC(C)C)NC(=O)[C@@H]2CCCN2C(=O)[C@H](C)NC(=O)CNC(=O)CNC(=O)[C@H](CO)NC(=O)CNC(=O)CNC(=O)[C@H](CO)NC(=O)[C@H](CCC(=O)O)NC(=O)[C@H](CC(C)C)NC(=O)[C@H](CC(C)C)NC(=O)[C@H](CCCCN)NC(=O)[C@H](CCCCN)NC(=O)[C@H]([C@@H](C)CC)NC(=O)[C@H]([C@@H](C)CC)NC(=O)[C@H](CCCCN)NC(=O)[C@H](CCCNC(=N)N)NC(=O)[C@H](Cc2ccc(O)cc2)NC(=O)[C@H](CC(C)C)NC(=O)[C@@H]2CCCN2C(=O)CNC(=O)CNC(=O)[C@@H](NC(=O)CN)CSSC[C@@H](C(N)=O)NC(=O)[C@H](CC(C)C)NC(=O)[C@H](CCCCN)NC(=O)[C@H](CCCCN)NC(=O)[C@H]([C@@H](C)CC)NC1=O,,25% human serum,"50 µM, 24 h",baseline: 0 h control,remaining intact peptide,0%
CC[C@H](C)[C@H](NC(=O)[C@H](CC(N)=O)NC(=O)[C@@H]1CCCN1C(=O)[C@H](CO)NC(=O)[C@H](CC(N)=O)NC(=O)[C@@H](N)CCC(N)=O)C(=O)N[C@@H](Cc1ccccc1)C(=O)NCC(=O)N[C@@H](CCC(N)=O)C(=O)N[C@@H](Cc1c[nH]c2ccccc12)C(=O)N[C@@H](CCSC)C(=O)O,,PBS,"24 h, pH 7.2, 37 °C",,remaining peptide,~70%
Cc1nnc(-c2ccc(CC(=O)NCCCC[C@H](NC(=O)c3ccc(OCc4ccc(B(O)O)cc4)c(-c4nc5ccccc5c(=O)[nH]4)c3)C(=O)NCC(=O)NCC(=O)NCC(=O)N[C@@H](Cc3ccccc3)C(=O)N[C@@H](Cc3ccccc3)C(=O)O)cc2)nn1,,human serum,"100 µM, 4 h, 37 °C",,remaining intact compound,~72%
O=C(NCCCCCn1ccc2ccc(F)cc21)Oc1cccc(F)c1,,porcine plasma,"20 µM, 0.5 h, 37 °C",,remaining parent compound,10 ± 3%
CC[C@H](C)[C@H](N)C(=O)N[C@@H](CC(N)=O)C(=O)N[C@H]1CNC(=O)[C@H](CC(C)C)NC(=O)[C@H](CC(C)C)NC(=O)[C@H](Cc2ccccc2)NC(=O)[C@H](C)NC1=O,HPLC,ammonium carbonate,"24 h, pH 8.0, 37 °C",,remaining intact peptide,> 90%
CC[C@H](C)[C@@H]1NC(=O)[C@H](CCCCN)NC(=O)[C@H](CCCCN)NC(=O)[C@H](Cc2ccc(O)cc2)NC(=O)[C@H](CC(C)C)NC(=O)[C@@H]2CCCN2C(=O)[C@H](C)NC(=O)CNC(=O)CNC(=O)[C@H](CO)NC(=O)CNC(=O)CNC(=O)[C@H](CO)NC(=O)[C@H](CCC(=O)O)NC(=O)[C@H](CC(C)C)NC(=O)[C@H](CC(C)C)NC(=O)[C@H](CCCCN)NC(=O)[C@H](CCCCN)NC(=O)[C@H]([C@@H](C)CC)NC(=O)[C@H]([C@@H](C)CC)NC(=O)[C@H](CCCCN)NC(=O)[C@H](CCCCN)NC(=O)[C@H](Cc2ccc(O)cc2)NC(=O)[C@H](CC(C)C)NC(=O)[C@@H]2CCCN2C(=O)[C@H](C)NC(=O)CNC(=O)[C@@H]2CSSC[C@H](NC(=O)[C@H](CC(C)C)NC(=O)[C@H](CCCCN)NC(=O)[C@H](CCCCN)NC(=O)[C@H]([C@@H](C)CC)NC1=O)C(=O)N[C@@H](CCC(=O)O)C(=O)N[C@@H](CC(N)=O)C(=O)NCC(=O)N2,,25% human serum,"50 µM, 24 h",baseline: 0 h control,remaining intact peptide,73.7 ± 6.9%
O=C(NCCCCCn1ccc2ccc(F)cc21)Oc1ccccc1F,,porcine plasma,"20 µM, 0.5 h, 37 °C",,remaining parent compound,19 ± 6%
CC[C@H](C)[C@@H]1NC(=O)[C@H](CCCCN)NC(=O)[C@H](CCCCN)NC(=O)[C@H](Cc2ccc(O)cc2)NC(=O)[C@H](CC(C)C)NC(=O)[C@@H]2CCCN2C(=O)[C@H](C)NC(=O)CNC(=O)CNC(=O)[C@H](CO)NC(=O)CNC(=O)CNC(=O)[C@H](CO)NC(=O)[C@H](CCC(=O)O)NC(=O)[C@H](CC(C)C)NC(=O)[C@H](CC(C)C)NC(=O)[C@H](CCCCN)NC(=O)[C@H](CCCCN)NC(=O)[C@H]([C@@H](C)CC)NC(=O)[C@H]([C@@H](C)CC)NC(=O)[C@H](CCCCN)NC(=O)[C@H](CCCCN)NC(=O)[C@H](Cc2ccc(O)cc2)NC(=O)[C@H](CC(C)C)NC(=O)[C@@H]2CCCN2C(=O)[C@H](C)NC(=O)CNC(=O)[C@@H]2CSSC[C@H](NC(=O)[C@H](CC(C)C)NC(=O)[C@H](CCCCN)NC(=O)[C@H](CCCCN)NC(=O)[C@H]([C@@H](C)CC)NC1=O)C(=O)N[C@@H](CCCCN)C(=O)N[C@@H](CC(N)=O)C(=O)NCC(=O)N2,,25% human serum,"50 µM, 24 h",baseline: 0 h control,remaining intact peptide,40.5 ± 4.3%
N[C@@H](Cc1ccc(O)cc1)C(=O)N1CCC[C@H]1C(=O)NCC(=O)NCC(=O)O,"diketopiperazine formation, ESI-MS",1-propanol,"5 µM, 90 min, 70 °C, 0.5% acetic acid",baseline: initial signal,remaining peptide,55%

# Repeated from above:
Compound,test,test system,setting,scale,endpoint,value
CC[C@H](C)[C@@H]1NC(=O)[C@H](CCCCN)NC(=O)[C@H](CCCCN)NC(=O)[C@H](Cc2ccc(O)cc2)NC(=O)[C@H](CC(C)C)NC(=O)[C@@H]2CCCN2C(=O)[C@H](C)NC(=O)CNC(=O)CNC(=O)[C@H](CO)NC(=O)CNC(=O)CNC(=O)[C@H](CO)NC(=O)[C@H](CCC(=O)O)NC(=O)[C@H](CC(C)C)NC(=O)[C@H](CC(C)C)NC(=O)[C@H](CCCCN)NC(=O)[C@H](CCCCN)NC(=O)[C@H]([C@@H](C)CC)NC(=O)[C@H]([C@@H](C)CC)NC(=O)[C@H](CCCCN)NC(=O)[C@H](CCCCN)NC(=O)[C@H](Cc2ccc(O)cc2)NC(=O)[C@H](CC(C)C)NC(=O)[C@@H]2CCCN2C(=O)[C@H](C)NC(=O)CNC(=O)[C@@H]2CSSC[C@H](NC(=O)[C@H](CC(C)C)NC(=O)[C@H](CCCCN)NC(=O)[C@H](CCCCN)NC(=O)[C@H]([C@@H](C)CC)NC1=O)C(=O)N[C@@H](CCCCN)C(=O)N[C@@H](CC(N)=O)C(=O)NCC(=O)N2,,25% human serum,"50 µM, 24 h",baseline: 0 h control,remaining intact peptide,40.5 ± 4.3%
N[C@@H](Cc1ccc(O)cc1)C(=O)N1CCC[C@H]1C(=O)NCC(=O)NCC(=O)O,"diketopiperazine formation, ESI-MS",1-propanol,"5 µM, 90 min, 70 °C, 0.5% acetic acid",baseline: initial signal,remaining peptide,55%
